Published values collected from several papers.
Organism: Pseudomonas aeruginosa

For `CC(=O)N[C@H](Cc1cccc(F)c1)C(=O)N[C@@H](CCN)C(=O)N[C@H](C(=O)N[C@@H](CCN)C(=O)N[C@H]1CCNC(=O)[C@H]([C@@H](C)O)NC(=O)[C@H](CCN)NC(=O)[C@H](CCN)NC(=O)[C@H](CC(C)C)NC(=O)[C@@H](Cc2ccccc2)NC(=O)[C@H](CCN)NC1=O)[C@@H](C)O`, the MIC was over 64 µg/mL (broth microdilution; colistin-resistant isolates).
With `CN[C@H](CC(C)C)C(=O)N[C@H]1C(=O)N[C@@H](CC(N)=O)C(=O)N[C@H]2C(=O)N[C@H]3C(=O)N[C@H](C(=O)N[C@H](C(=O)NCC(N)=O)c4cc(O)cc(O)c4-c4cc3ccc4O)[C@H](O)c3ccc(c(Cl)c3)Oc3cc2cc(c3O[C@@H]2O[C@H](CO)[C@@H](O)[C@H](O)[C@H]2O[C@H]2C[C@](C)(NCc3ccc(OCc4cn(CC(=O)N[C@H](C(=O)N[C@@H](CCN)C(=O)N[C@H]5CCNC(=O)[C@H]([C@@H](C)O)NC(=O)[C@H](CCN)NC(=O)[C@H](CCN)NC(=O)[C@H](CC(C)C)NC(=O)[C@@H](CC(C)C)NC(=O)[C@H](CCN)NC5=O)[C@@H](C)O)nn4)c(OC)c3)[C@H](O)[C@H](C)O2)Oc2ccc(cc2Cl)[C@H]1O` the MIC was 12 µM (broth microdilution; ATCC 10145, cation-adjusted Mueller-Hinton broth).
`CC[C@H](C)[C@H](NC(=O)[C@H](Cc1c[nH]c2ccccc12)NC(=O)[C@H](Cc1ccc(O)cc1)NC(=O)[C@H](CCCCN)NC(=O)[C@H](CC(C)C)NC(=O)[C@H](CO)NC(=O)[C@@H](N)Cc1ccccc1)C(=O)N[C@@H](CCCNC(=N)N)C(=O)N[C@@H](Cc1ccc(O)cc1)C(=O)N[C@@H](CCCCN)C(=O)N[C@@H](CCCNC(=N)N)C(=O)N[C@@H](CCC(N)=O)C(=O)NCC(=O)N[C@@H](C)C(=O)N[C@@H](C)C(=O)N[C@@H](CCCNC(=N)N)C(=O)N[C@@H](Cc1ccccc1)C(N)=O` gave an MIC of over 100 µM (broth dilution; ATCC 27853).
`CC(C)C[C@@H]1NC(=O)[C@@H](CC(C)C)NC(=O)[C@H](CCN)NC(=O)[C@@H](NC(=O)[C@H](CCN)NC(=O)[C@@H](NC(=O)CCCCN=[N+]=[N-])[C@@H](C)O)CCNC(=O)[C@H]([C@@H](C)O)NC(=O)[C@H](CCN)NC(=O)[C@H](CCN)NC1=O` gave an MIC of 8 µM (broth microdilution; ATCC 27736, cation-adjusted Mueller-Hinton broth).
`CC[C@H](C)[C@H](NC(=O)[C@@H](CCCNC(=N)N)NC(=O)[C@H](CCCNC(=N)N)NC(=O)[C@@H]1CCCN1C(=O)[C@@H]1CCCN1C(=O)[C@H](CCCNC(=N)N)NC(=O)[C@@H]1CCCN1C(=O)[C@H](CCCNC(=N)N)NC(=O)[C@@H]1CCCN1C(=O)[C@H](CC(C)C)NC(=O)[C@H](Cc1ccc(O)c([N+](=O)[O-])c1)NC(=O)[C@@H]1CCCN1C(=O)[C@@H]1CCCN1C(=O)[C@H](CCCCN)NC(=O)[C@H](CC(=O)O)NC(=O)[C@@H](N)C(C)C)C(=O)N[C@@H](Cc1ccc(O)cc1)C(=O)N[C@@H](CC(N)=O)C(=O)N[C@H](CCCNC(=N)N)C(N)=O` gave an MIC of over 128 µg/mL (broth microdilution; DSM 1117; 18 h, 37 °C, 25% MHB2).
`CC(=O)N[C@H](Cc1ccc(Br)cc1)C(=O)N[C@@H](CCN)C(=O)N[C@H](C(=O)N[C@@H](CCN)C(=O)N[C@H]1CCNC(=O)[C@H]([C@@H](C)O)NC(=O)[C@H](CCN)NC(=O)[C@H](CCN)NC(=O)[C@H](CC(C)C)NC(=O)[C@@H](Cc2ccccc2)NC(=O)[C@H](CCN)NC1=O)[C@@H](C)O` gave an MIC of 0.125 to 0.25 µg/mL (broth microdilution; PAO1, colistin-susceptible).
`CC[C@H](C)[C@@H]1NC(=O)[C@H](C(C)C)NC(=O)[C@H](C(C)C)NC(=O)[C@H](CC(C)C)NC(=O)C[C@@H](C(=O)N[C@@H](Cc2c[nH]c3ccccc23)C(=O)N[C@@H](CC(N)=O)C(=O)N[C@@H](C)C(=O)N2CCC[C@H]2C(=O)NCC(=O)N[C@@H](Cc2c[nH]c3ccccc23)C(=O)N[C@@H](Cc2ccccc2)C(=O)O)NC(=O)[C@H](C)NC(=O)[C@H](CCC(N)=O)NC(=O)[C@H](C(C)C)NC1=O` gave an MIC of over 32 µg/mL (14).
`CC(C)[C@H](NC(=O)[C@H](Cc1ccc(O)cc1)NC(=O)[C@H](CS)NC(=O)[C@@H](NC(=O)[C@H](CCCNC(=N)N)NC(=O)[C@H](Cc1ccccc1)NC(=O)[C@H](CS)NC(=O)[C@H](Cc1c[nH]c2ccccc12)NC(=O)[C@@H](N)CCCNC(=N)N)C(C)C)C(=O)NCC(=O)N[C@@H](Cc1ccccc1)C(=O)N[C@@H](CS)C(=O)N[C@@H](Cc1ccc(O)cc1)C(=O)N[C@@H](Cc1c[nH]c2ccccc12)C(=O)N[C@@H](CCCCN)C(=O)N[C@@H](CS)C(=O)N[C@@H](CCCNC(=N)N)C(=O)O` has an MIC of 17.6 µg/mL (broth microdilution; ATCC 27853, Mueller-Hinton broth; 16 to 20 h, 37 °C).
`CC(=O)N[C@@H](CC(C)C)C(=O)N[C@H]1CSSC[C@@H](C(=O)N2CCC[C@H]2C(N)=O)NC(=O)[C@H](CCCCN)NC(=O)[C@H](C(C)C)NC(=O)[C@H](CCCCN)NC(=O)CNC(=O)[C@H](CC(C)C)NC(=O)[C@H](Cc2ccccc2)NC(=O)[C@H](CCCCN)NC(=O)[C@H](CC(C)C)NC(=O)[C@H](CCC(=O)O)NC(=O)[C@H](Cc2ccccc2)NC(=O)[C@H](CCCNC(=N)N)NC(=O)[C@H](CCCCN)NC(=O)[C@H](CC(C)C)NC(=O)[C@H](CC(=O)O)NC(=O)[C@@H]2CCCN2C(=O)[C@H](CCCCN)NC(=O)[C@H](C(C)C)NC(=O)[C@H](CCCCN)NC(=O)[C@H](CCCCN)NC(=O)[C@H](CCCCN)NC1=O` gave an MIC of 10 to 20 µM (broth dilution; CGMCC strain; 24 h).

A few entries again:
`CC(C)C[C@@H]1NC(=O)[C@@H](CC(C)C)NC(=O)[C@H](CCN)NC(=O)[C@@H](NC(=O)[C@H](CCN)NC(=O)[C@@H](NC(=O)CCCCN=[N+]=[N-])[C@@H](C)O)CCNC(=O)[C@H]([C@@H](C)O)NC(=O)[C@H](CCN)NC(=O)[C@H](CCN)NC1=O` gave an MIC of 8 µM (broth microdilution; ATCC 27736, cation-adjusted Mueller-Hinton broth).
